Experimental data from different studies.
Lines come from different studies, so protocols differ. Several values in a cell are separate wells, animals, samples, runs or records. ± marks the error that the study gave.
Botulinum neurotoxin type A light chain: Botulinum neurotoxin type A, light chain (Clostridium botulinum, UniProt P0DPI0)
rep R3428I 3C-like proteinase: Replicase polyprotein 1ab, 3C-like proteinase (rep, Severe acute respiratory syndrome-related coronavirus, UniProt P0C6X7, R3428I)
Neuronal acetylcholine receptor; alpha3/beta2: Neuronal acetylcholine receptor; alpha3/beta2 (Rattus norvegicus, UniProt P04757+P12390)
Ricin A chain: Ricin, A chain (Ricinus communis, UniProt P02879)
Shiga-like toxin 2 subunit A A1 fragment: Shiga-like toxin 2 subunit A, A1 fragment (UniProt P09385)
Replicase polyprotein 1a R3428I 3C-like proteinase: Replicase polyprotein 1a, 3C-like proteinase (Severe acute respiratory syndrome-related coronavirus, UniProt P0C6U8, R3428I)

Sequences of proteins named here, by UniProt entry; tags and fusion partners are left off. Residues count along the entry.
UniProt P04757, 26-499 limits assumed: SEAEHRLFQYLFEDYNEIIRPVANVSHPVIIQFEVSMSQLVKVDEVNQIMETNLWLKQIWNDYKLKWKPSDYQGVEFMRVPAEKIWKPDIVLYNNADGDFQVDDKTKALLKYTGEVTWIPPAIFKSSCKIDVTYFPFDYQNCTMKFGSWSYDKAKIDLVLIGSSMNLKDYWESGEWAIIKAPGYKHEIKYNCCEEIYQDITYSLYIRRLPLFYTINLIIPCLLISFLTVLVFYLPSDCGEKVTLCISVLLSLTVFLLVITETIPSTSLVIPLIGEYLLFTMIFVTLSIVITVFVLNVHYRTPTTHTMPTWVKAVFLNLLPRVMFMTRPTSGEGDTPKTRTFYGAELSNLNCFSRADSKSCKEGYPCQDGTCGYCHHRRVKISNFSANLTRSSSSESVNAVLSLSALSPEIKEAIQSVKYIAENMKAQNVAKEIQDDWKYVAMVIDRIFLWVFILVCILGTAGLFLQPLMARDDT
UniProt P12390, 25-500 limits assumed: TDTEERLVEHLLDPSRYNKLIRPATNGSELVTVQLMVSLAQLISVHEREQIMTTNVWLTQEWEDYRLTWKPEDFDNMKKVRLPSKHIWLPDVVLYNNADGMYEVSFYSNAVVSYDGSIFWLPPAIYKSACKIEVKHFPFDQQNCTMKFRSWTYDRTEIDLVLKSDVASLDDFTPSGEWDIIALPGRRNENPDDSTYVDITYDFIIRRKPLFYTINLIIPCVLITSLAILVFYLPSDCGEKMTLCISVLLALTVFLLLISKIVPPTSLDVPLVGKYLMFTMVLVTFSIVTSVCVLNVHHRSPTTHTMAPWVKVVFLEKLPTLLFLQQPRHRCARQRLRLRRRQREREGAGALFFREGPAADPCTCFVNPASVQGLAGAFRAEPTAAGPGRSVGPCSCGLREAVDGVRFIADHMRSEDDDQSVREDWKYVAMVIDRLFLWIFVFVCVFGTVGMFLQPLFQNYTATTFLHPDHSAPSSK
UniProt P35372, whole entry: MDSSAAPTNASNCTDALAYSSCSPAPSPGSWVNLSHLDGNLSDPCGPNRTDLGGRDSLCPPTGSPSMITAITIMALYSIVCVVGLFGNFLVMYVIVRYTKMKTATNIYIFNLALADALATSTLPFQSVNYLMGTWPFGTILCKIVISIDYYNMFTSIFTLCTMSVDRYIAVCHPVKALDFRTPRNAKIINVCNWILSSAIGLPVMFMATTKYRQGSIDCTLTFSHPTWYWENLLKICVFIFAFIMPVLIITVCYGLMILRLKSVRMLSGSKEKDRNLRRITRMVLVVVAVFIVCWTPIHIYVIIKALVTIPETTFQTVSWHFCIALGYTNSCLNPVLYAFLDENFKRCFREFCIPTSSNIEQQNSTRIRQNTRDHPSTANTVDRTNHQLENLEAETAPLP
UniProt Q9GZZ6, 25-450 limits assumed: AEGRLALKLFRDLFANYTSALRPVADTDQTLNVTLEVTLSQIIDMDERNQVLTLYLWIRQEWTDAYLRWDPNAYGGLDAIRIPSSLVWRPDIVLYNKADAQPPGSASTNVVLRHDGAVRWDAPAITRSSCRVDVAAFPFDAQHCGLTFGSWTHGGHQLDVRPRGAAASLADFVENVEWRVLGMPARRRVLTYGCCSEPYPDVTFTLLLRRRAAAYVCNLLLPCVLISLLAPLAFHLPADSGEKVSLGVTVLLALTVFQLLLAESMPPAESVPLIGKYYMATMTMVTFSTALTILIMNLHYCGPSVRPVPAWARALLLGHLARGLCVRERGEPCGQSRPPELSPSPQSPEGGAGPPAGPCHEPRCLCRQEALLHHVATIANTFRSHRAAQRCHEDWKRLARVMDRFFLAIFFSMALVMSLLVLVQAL
UniProt Q9UGM1, 26-479 limits assumed: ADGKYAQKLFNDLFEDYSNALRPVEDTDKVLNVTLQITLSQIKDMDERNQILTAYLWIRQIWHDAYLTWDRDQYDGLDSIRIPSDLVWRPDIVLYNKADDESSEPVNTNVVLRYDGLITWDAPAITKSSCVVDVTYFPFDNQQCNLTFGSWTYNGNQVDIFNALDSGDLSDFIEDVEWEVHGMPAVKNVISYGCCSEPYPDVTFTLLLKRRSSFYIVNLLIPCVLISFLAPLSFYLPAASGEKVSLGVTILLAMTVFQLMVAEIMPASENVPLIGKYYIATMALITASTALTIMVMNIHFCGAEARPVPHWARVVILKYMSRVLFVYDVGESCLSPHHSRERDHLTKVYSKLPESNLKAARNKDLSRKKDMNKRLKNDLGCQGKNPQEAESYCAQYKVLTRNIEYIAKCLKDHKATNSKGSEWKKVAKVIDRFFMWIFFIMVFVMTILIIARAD
UniProt P02708, 21-457 limits assumed: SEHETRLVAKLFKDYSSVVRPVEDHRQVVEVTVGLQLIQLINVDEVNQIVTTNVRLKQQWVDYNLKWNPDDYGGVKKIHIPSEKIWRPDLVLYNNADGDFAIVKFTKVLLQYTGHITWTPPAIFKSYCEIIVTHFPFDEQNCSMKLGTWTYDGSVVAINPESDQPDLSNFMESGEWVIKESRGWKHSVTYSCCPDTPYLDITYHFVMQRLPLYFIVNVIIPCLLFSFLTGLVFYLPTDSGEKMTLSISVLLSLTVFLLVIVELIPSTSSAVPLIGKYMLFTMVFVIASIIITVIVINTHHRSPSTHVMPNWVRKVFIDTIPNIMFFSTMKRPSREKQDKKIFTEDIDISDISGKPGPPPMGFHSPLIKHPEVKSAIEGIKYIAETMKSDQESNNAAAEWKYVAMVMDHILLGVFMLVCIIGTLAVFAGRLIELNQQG
UniProt P11230, 24-501 partner limits assumed: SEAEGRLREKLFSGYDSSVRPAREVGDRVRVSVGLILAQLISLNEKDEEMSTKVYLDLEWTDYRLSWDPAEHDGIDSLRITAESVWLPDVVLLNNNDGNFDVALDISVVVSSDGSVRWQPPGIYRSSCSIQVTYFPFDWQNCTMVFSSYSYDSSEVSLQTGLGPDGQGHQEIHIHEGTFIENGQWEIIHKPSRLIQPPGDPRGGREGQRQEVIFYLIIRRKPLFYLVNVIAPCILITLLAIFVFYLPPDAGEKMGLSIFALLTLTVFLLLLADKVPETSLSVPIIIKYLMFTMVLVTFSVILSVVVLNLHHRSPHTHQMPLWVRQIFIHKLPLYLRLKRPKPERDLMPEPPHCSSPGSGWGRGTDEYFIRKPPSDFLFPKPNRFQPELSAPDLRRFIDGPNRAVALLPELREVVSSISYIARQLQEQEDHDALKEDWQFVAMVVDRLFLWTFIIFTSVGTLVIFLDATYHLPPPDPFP
UniProt Q04844, 21-493 limits assumed: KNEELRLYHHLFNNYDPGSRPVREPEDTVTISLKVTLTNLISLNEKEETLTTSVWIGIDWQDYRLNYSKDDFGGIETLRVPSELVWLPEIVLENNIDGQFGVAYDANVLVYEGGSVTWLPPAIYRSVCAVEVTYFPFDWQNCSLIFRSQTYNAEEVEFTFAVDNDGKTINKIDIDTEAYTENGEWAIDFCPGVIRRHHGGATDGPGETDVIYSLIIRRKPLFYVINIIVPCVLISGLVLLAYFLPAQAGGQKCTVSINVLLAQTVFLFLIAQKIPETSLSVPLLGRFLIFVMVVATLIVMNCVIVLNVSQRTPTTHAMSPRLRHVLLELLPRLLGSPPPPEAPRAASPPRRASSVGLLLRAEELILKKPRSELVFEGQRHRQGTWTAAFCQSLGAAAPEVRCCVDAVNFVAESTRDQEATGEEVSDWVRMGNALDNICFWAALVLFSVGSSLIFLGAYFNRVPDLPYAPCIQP
UniProt Q07001, 22-517 limits assumed: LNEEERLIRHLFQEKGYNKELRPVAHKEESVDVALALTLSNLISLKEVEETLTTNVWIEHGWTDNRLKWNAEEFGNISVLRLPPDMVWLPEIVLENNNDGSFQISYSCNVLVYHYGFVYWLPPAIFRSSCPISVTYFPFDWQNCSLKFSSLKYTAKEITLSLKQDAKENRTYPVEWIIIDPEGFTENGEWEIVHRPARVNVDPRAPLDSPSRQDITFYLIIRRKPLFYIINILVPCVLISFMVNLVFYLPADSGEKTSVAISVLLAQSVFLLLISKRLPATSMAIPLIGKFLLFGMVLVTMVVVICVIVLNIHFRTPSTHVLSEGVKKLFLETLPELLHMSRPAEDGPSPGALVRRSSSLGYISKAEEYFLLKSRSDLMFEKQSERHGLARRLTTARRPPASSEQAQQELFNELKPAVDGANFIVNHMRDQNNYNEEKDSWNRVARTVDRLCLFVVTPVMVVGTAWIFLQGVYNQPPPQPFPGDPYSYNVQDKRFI
UniProt Q05941, 23-502 limits assumed: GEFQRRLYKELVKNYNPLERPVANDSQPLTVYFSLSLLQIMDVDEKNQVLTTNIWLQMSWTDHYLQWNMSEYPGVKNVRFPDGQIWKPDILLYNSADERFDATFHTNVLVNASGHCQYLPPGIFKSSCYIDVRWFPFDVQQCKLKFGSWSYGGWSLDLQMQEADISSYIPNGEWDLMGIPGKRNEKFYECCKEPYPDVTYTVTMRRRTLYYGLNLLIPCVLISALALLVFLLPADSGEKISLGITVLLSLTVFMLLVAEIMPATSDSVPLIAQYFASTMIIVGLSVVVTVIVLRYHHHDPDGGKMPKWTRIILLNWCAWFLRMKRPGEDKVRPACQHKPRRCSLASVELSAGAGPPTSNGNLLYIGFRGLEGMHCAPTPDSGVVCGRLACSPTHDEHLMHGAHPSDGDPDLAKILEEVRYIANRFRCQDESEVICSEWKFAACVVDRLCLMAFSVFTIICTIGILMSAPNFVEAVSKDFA

`CC(=O)Nc1ccc(/C=N/Nc2ccc(C(=O)c3c(C)cc4ccccn34)cc2[N+](=O)[O-])cc1` gave an IC50 of 6 ± 6 µM (Botulinum neurotoxin type A light chain; inhibitor, FRET, SNAPtide substrate; no reducing agent).
`C=C(COC(C)=O)[C@@H]1CCC(C)=C[C@H]1c1c(O)cc(CCCCC)cc1O` gave an IC50 of 0.619 µM (Mu-type opioid receptor (OPRM1, Homo sapiens, UniProt P35372); cAMP level, antagonist; HEK293 expressing human µ-opioid receptor; together with: fentanyl 500 pM (EC95)).
With `CC(C)C[C@H](NC(=O)[C@@H](NC(=O)COc1ccccc1)C(C)C)C(=O)N[C@@H](C[C@@H]1CCNC1=O)C(=O)c1nccs1` the IC50 was 6.8 µM (rep R3428I 3C-like proteinase; enzyme activity, inhibitor, HPLC; 60 min, 37 °C, together with: substrate 111 µM).
`Cc1cccc([N+](=O)[O-])c1C(=O)OC[C@@H](NC(=O)/C=C/c1ccccc1)C(=O)NC1CCCCC1` gave an IC50 of 100 µM (rep R3428I 3C-like proteinase; enzyme activity, inhibitor, HPLC substrate depletion; pH 4.0).
For `COc1c(-c2coc3cc4c(cc3c2=O)CC(O)C(C)(C)O4)ccc2c1C=CC(C)(C)O2` (centres unmarked), the IC50 was 0.407 µM (Replicase polyprotein 1ab, main protease (rep, Severe acute respiratory syndrome coronavirus 2, UniProt P0DTD1); luciferase reporter, inhibitor; SARS-CoV-2; 48 h).
For `COc1ccc(/C=C/C(=O)N[C@@H](COC(=O)c2ccccc2)C(=O)NC2CCCCC2)cc1`, the IC50 was 240 µM (rep R3428I 3C-like proteinase; enzyme activity, inhibitor, HPLC substrate depletion; pH 4.0).
For `CC[C@H](C)[C@@H]1NC(=O)[C@H](CO)NC(=O)[C@@H]2CSSC[C@H](NC(=O)CN)C(=O)N[C@@H](CSSC[C@@H](C(N)=O)NC(=O)[C@H](CC(C)C)NC(=O)[C@H](CCC(=O)O)NC(=O)[C@@H]3CCCN3C(=O)[C@H](Cc3c[nH]cn3)NC(=O)[C@H](CC(N)=O)NC1=O)C(=O)N[C@@H](CO)C(=O)N[C@@H](Cc1c[nH]cn1)C(=O)N1CCC[C@H]1C(=O)N[C@@H](C)C(=O)N2`, the IC50 was 0.0118 µM (Neuronal acetylcholine receptor; alpha3/beta2; ion current, antagonist, two-electrode voltage clamp; Xenopus laevis oocytes; together with: 100 µM acetylcholine).
`Nc1nc2nc(C(=O)NCCNc3ccccc3)cnc2c(=O)[nH]1` has an IC50 of 210 µM (Ricin A chain; recovery of translation, inhibitor, in vitro luciferase translation; rabbit reticulocyte lysate).
The IC50 of `CSCC[C@H](N)C(=O)NCC(=O)N[C@@H](Cc1ccccc1)C(=O)NCC(=O)N[C@@H](CC(C)C)C(=O)N[C@@H](Cc1ccccc1)C(=O)N[C@@H](CC(=O)O)C(=O)O` is reported as 60 ± 6 µM (Shiga-like toxin 2 subunit A A1 fragment; ribosome depurination; yeast ribosomes; pH 7.4).
For `CC(C)C[C@H](NC(=O)[C@@H](NC(=O)COc1cccnc1)C(C)C)C(=O)N[C@@H](C[C@@H]1CCNC1=O)C(=O)c1nc2ccccc2s1`, the IC50 was 2.9 µM (rep R3428I 3C-like proteinase; enzyme activity, inhibitor, HPLC; 60 min, 37 °C, together with: substrate 111 µM).
For `NC(=O)c1cnc2c(=O)[nH]c(N)nc2n1`, IC50 read “no inhibition” (Ricin A chain; recovery of translation, inhibitor, in vitro luciferase translation; rabbit reticulocyte lysate).
`CC(C)C[C@@H]1NC(=O)[C@H](CCC(=O)O)NC(=O)[C@@H]2CCCN2C(=O)[C@H](Cc2c[nH]cn2)NC(=O)[C@H](CCC(=O)O)NC(=O)[C@H](C(C)C)NC(=O)[C@H](CO)NC(=O)[C@@H]2CSSC[C@H](NC(=O)CN)C(=O)N[C@@H](CSSC[C@@H](C(N)=O)NC1=O)C(=O)N[C@@H](CO)C(=O)N[C@@H](Cc1c[nH]cn1)C(=O)N1CCC[C@H]1C(=O)N[C@@H](C)C(=O)N2` has an IC50 of 0.0311 µM (Neuronal acetylcholine receptor; alpha3/beta2; ion current, antagonist, two-electrode voltage clamp; Xenopus laevis oocytes; together with: 100 µM acetylcholine).
With `C[C@@H]1NC(=O)[C@H](CCCNC(=N)N)NC(=O)[C@H](CCCNC(=N)N)NC(=O)[C@H](CCCNC(=N)N)NC(=O)[C@H](CO)NC(=O)[C@@H]2CSSC[C@H](NC(=O)CN)C(=O)N[C@@H](CSSC[C@@H](C(N)=O)NC(=O)[C@H](CO)NC(=O)[C@H](CCCNC(=N)N)NC1=O)C(=O)N[C@@H](CO)C(=O)N[C@@H](Cc1c[nH]cn1)C(=O)N1CCC[C@H]1C(=O)N[C@@H](C)C(=O)N2` the IC50 was 0.0981 µM (Neuronal acetylcholine receptor; alpha9/alpha10 (Homo sapiens, UniProt Q9GZZ6+Q9UGM1); ion current, antagonist, two-electrode voltage clamp; Xenopus oocytes; holding -70 mV, together with: 100 µM acetylcholine).
For `O=C(/C=C/c1ccc(OC(=O)c2ccccc2)cc1)N[C@H](COC(=O)c1ccccc1)C(=O)NC1CCCCC1`, the IC50 was 68 µM (rep R3428I 3C-like proteinase; enzyme activity, inhibitor, HPLC substrate depletion; pH 4.0).
For `O=C1/C(=C2\Nc3ccccc3C2=O)Nc2ccccc21`, the IC50 was 752 µM and 724 µM (Replicase polyprotein 1ab, 3C-like proteinase (rep, Severe acute respiratory syndrome-related coronavirus, UniProt P0C6X7); 3CLpro cleavage, inhibitor, luciferase reporter; Vero).
The IC50 of `O=C(O)c1cc(-c2ccc(-c3c(-c4ccc5c(c4)OCO5)noc3-c3ccsc3)cc2)nc2ccccc12` is reported as 130 µM (Botulinum neurotoxin type A light chain; inhibitor, FRET, YFP-SNAP25-CFP substrate; no reducing agent).
For `O=C(/C=C/c1ccccc1)N[C@@H](c1ccccc1)[C@@H](OC(=O)/C=C/c1cccc(O)c1)C(=O)NC1CCCCC1`, the IC50 was over 500 µM (Replicase polyprotein 1a R3428I 3C-like proteinase; enzyme activity, inhibitor; pH 4.0).
For `CC(C)C[C@@H]1NC(=O)[C@H](CCC(=O)O)NC(=O)[C@@H]2CCCN2C(=O)[C@H](Cc2c[nH]cn2)NC(=O)[C@H](CCCC(=O)O)NC(=O)[C@H](CC(C)C)NC(=O)[C@H](Cc2c[nH]cn2)NC(=O)[C@@H]2CSSC[C@H](NC(=O)CN)C(=O)N[C@@H](CSSC[C@@H](C(N)=O)NC1=O)C(=O)N[C@@H](CO)C(=O)N[C@@H](Cc1c[nH]cn1)C(=O)N1CCC[C@H]1C(=O)N[C@@H](C)C(=O)N2`, the IC50 was 0.00301 µM (Neuronal acetylcholine receptor; alpha3/beta2; ion current, antagonist, two-electrode voltage clamp; Xenopus laevis oocytes; together with: 100 µM acetylcholine).
With `CC(C)[C@@H]1NC(=O)[C@@H]2CCCN2C(=O)[C@H](Cc2c[nH]cn2)NC(=O)[C@H](CO)NC(=O)[C@@H]2CSSC[C@@H](C(=O)NCC(N)=O)NC(=O)[C@H](CC(N)=O)NC(=O)[C@@H]3CCCN3C(=O)[C@H](CC(N)=O)NC(=O)[C@H](CCCCN)NC(=O)[C@H]([C@@H](C)O)NC(=O)[C@H](Cc3ccc(O)cc3)NC(=O)[C@H](CSSC[C@H](NC(=O)CNC(=O)CN)C(=O)N2)NC1=O` the IC50 was over 10 µM (Nicotinic acetylcholine receptor alpha-1/beta-1/delta/epsilon (Homo sapiens, UniProt P02708+P11230+Q04844+Q07001); ion current, antagonist, two-electrode voltage clamp; Xenopus laevis oocytes; holding -70 mV, together with: 10 µM acetylcholine).
For `O=C(/C=C/c1ccccc1)N[C@@H](COC(=O)c1ccccc1)C(=O)NC1CCCCC1`, the IC50 was 125 µM (rep R3428I 3C-like proteinase; enzyme activity, inhibitor, HPLC substrate depletion; pH 4.0).
With `O=C(/C=C/c1ccccc1)N[C@@H](c1ccccc1)[C@@H](OC(=O)/C=C/c1ccccc1)C(=O)NC1CCCCC1` the IC50 was 85 µM (Replicase polyprotein 1a R3428I 3C-like proteinase; enzyme activity, inhibitor; pH 4.0).
For `CSCC[C@H](NC(=O)[C@H](CC(=O)O)NC(=O)[C@H](CC(=O)O)NC(=O)[C@H](CC(=O)O)NC(=O)[C@H](CO)NC(=O)[C@H](CCC(=O)O)NC(=O)[C@H](CCC(=O)O)NC(=O)[C@@H](N)CO)C(=O)NCC(=O)N[C@@H](Cc1ccccc1)C(=O)NCC(=O)N[C@@H](CC(C)C)C(=O)N[C@@H](Cc1ccccc1)C(=O)N[C@@H](CC(=O)O)C(=O)O`, the IC50 was 29 ± 5 µM (Shiga-like toxin 2 subunit A A1 fragment; ribosome depurination; yeast ribosomes; pH 7.4).
For `CCCCCCCCCCCCCCCC[N+](C)(C)CCN(Cc1ccc(OC)cc1)c1ncccn1`, the IC50 was 9.6 µM (Replicase polyprotein 1ab, main protease (rep, Middle East respiratory syndrome-related coronavirus, UniProt K9N7C7); enzyme activity, inhibitor, FRET; MERS-CoV; together with: 40 µM substrate).
With `CC1=Nc2ccccc2/C1=C/c1sc(=S)n(-c2cccc(C(=O)O)c2)c1O` the IC50 was 50 ± 20 µM (Botulinum neurotoxin type A light chain; inhibitor, FRET, SNAPtide substrate; no reducing agent).
`CC[C@H](C)[C@@H]1NC(=O)[C@H](CCC(=O)O)NC(=O)[C@@H]2CCCN2C(=O)[C@H](Cc2c[nH]cn2)NC(=O)[C@H](CCCCC(=O)O)NC(=O)[C@H](CC(C)C)NC(=O)[C@H](Cc2c[nH]cn2)NC(=O)[C@@H]2CSSC[C@H](NC(=O)CN)C(=O)N[C@@H](CSSC[C@@H](C(N)=O)NC1=O)C(=O)N[C@@H](CO)C(=O)N[C@@H](Cc1c[nH]cn1)C(=O)N1CCC[C@H]1C(=O)N[C@@H](C)C(=O)N2` has an IC50 of 0.0345 µM (Neuronal acetylcholine receptor subunit alpha-7 (Chrna7, Rattus norvegicus, UniProt Q05941); ACh-evoked current, antagonist, two-electrode voltage clamp; Xenopus laevis oocytes; together with: ACh 300 µM).
`O=C(/C=C/Cc1ccccc1)N[C@@H](COC(=O)c1ccccc1)C(=O)NC1CCCCC1` has an IC50 of 500 µM (rep R3428I 3C-like proteinase; enzyme activity, inhibitor, HPLC substrate depletion; pH 4.0).
The IC50 of `CC(C)C[C@H](NC(=O)[C@@H](NC(=O)COc1ccccc1)C(C)C)C(=O)N[C@@H](Cc1c[nH]cn1)C(=O)c1nccs1` is reported as 210 µM (rep R3428I 3C-like proteinase; enzyme activity, inhibitor, HPLC; 60 min, 37 °C, together with: substrate 111 µM).
`Nc1nc2nc(C(=O)NCc3ccco3)cnc2c(=O)[nH]1` has an IC50 of 380 µM (Ricin A chain; recovery of translation, inhibitor, in vitro luciferase translation; rabbit reticulocyte lysate).
The IC50 of `COc1ccc(OCC(=O)N[C@H](C(=O)N[C@@H](CC(C)C)C(=O)N[C@@H](C[C@@H]2CCNC2=O)C(=O)c2nc3ccccc3s2)C(C)C)cc1` is reported as 0.92 µM (rep R3428I 3C-like proteinase; enzyme activity, inhibitor, HPLC; 60 min, 37 °C, together with: substrate 111 µM).
`NC12CC3CC(CC(C3)C1)C2` gave an EC50 of 58.4 ± 2.5 µM (Influenza A virus; viral replication, plaque size reduction; MDCK, A/Swine/Indiana/29-0408/2010 (H1N2)).
For `CCCC(=O)OC[C@H](NC(=O)/C=C/c1ccccc1)C(=O)NC1CCCCC1`, the IC50 was 650 µM (rep R3428I 3C-like proteinase; enzyme activity, inhibitor, HPLC substrate depletion; pH 4.0).
With `CC(C)C[C@@H](NC(=O)[C@@H](NC(=O)OCc1ccccc1)C(C)C)C(=O)N[C@@H](C[C@@H]1CCNC1=O)C(=O)c1nc2ccccc2s1` the IC50 was over 1600 µM (rep R3428I 3C-like proteinase; enzyme activity, inhibitor, HPLC; 60 min, 37 °C, together with: substrate 111 µM).
